Measured values collected from several papers.
Compare with care: the assays were run in different laboratories.
Organism: Staphylococcus aureus

COc1ccc2ccc3c(c2c1)C=[N+]1C2CCCCC2[N+]2=Cc4ccc(F)cc4[O][Au-]21[O]3.F[P-](F)(F)(F)(F)F (centres unmarked)  MIC (bacterial growth, broth microdilution; vancomycin-intermediate; 24 h): > 20 µM
N=C(N)NCCC[C@H](NC(=O)[C@H](CCCNC(=N)N)NC(=O)[C@H](CCCNC(=N)N)NC(=O)[C@@H](N)CCCNC(=N)N)C(=O)N[C@@H](Cc1c[nH]c2ccccc12)C(=O)N[C@@H](Cc1c[nH]c2ccccc12)C(=O)N[C@@H](Cc1c[nH]c2ccccc12)C(=O)N[C@@H](Cc1c[nH]c2ccccc12)C(=O)O  MIC (broth microdilution; MRSA ATCC 43300; 37 °C): 43.4 µg/mL
CN1C(=O)[C@@H]2NC(=O)[C@@H]3NC(=O)[C@@H](c4ccc(O)cc4)NC(=O)[C@H](NC(=O)C(NCc4cccc(F)c4F)c4ccc(O)cc4)Cc4c[nH]c5cc(ccc45)-c4cc3cc(c4O)Oc3ccc(cc3)C[C@H]1C(=O)N[C@@H](C(=O)O)c1ccc(O)c(c1)Oc1ccc2cc1 (some centres unmarked)  MIC (ATCC 33591 MRSA, Mueller-Hinton broth): 16 µg/mL
CC(C)[C@H](NC(=O)[C@H](CCCCN)NC(=O)[C@H](CCCNC(=N)N)NC(=O)[C@@H](NC(=O)[C@H](C)NC(=O)[C@H](CC(N)=O)NC(=O)[C@H](CCCNC(=N)N)NC(=O)[C@@H](NC(=O)[C@H](CCCCN)NC(=O)[C@H](CCCCN)NC(=O)[C@@H](NC(=O)[C@@H](NC(=O)[C@H](CCCNC(=N)N)NC(=O)[C@H](CCCNC(=N)N)NC(=O)[C@H](Cc1c[nH]c2ccccc12)NC(=O)[C@H](Cc1c[nH]c2ccccc12)NC(=O)CN)[C@@H](C)O)C(C)C)C(C)C)C(C)C)C(=O)O  MIC (bacterial growth; MRSA, ESBL-positive; 18 h): 32 µg/mL
CC(C)C[C@@H]1NC(=O)[C@H](C)NC(=O)[C@H](NC(=O)[C@H](CO)NC(=O)[C@@H](CCCCN)NC(=O)[C@@H](CC(C)C)N(C)C(=O)[C@@H](N)Cc2ccccc2)[C@H](C)OC(=O)[C@H](CC(C)C)NC1=O  MIC (MSSA ATCC 29213; TFA salt): > 32 µg/mL
CN1C(=O)[C@@H]2NC(=O)[C@@H]3NC(=O)[C@@H](c4ccc(O)cc4)NC(=O)[C@H](NC(=O)C(NCc4cc(Cl)cc(Cl)c4Cl)c4ccc(O)cc4)Cc4c[nH]c5cc(ccc45)-c4cc3cc(c4O)Oc3ccc(cc3)C[C@H]1C(=O)N[C@@H](C(=O)O)c1ccc(O)c(c1)Oc1ccc2cc1 (some centres unmarked)  MIC (ATCC 33591 MRSA, Mueller-Hinton broth): 4 µg/mL
CC[C@H](C)[C@H](N)C1=N[C@H](C(=O)N[C@@H](Cc2ccccc2)C(=O)N[C@H](CCC(=O)O)C(=O)N[C@H](C(=O)N[C@H]2CCCCNC(=O)[C@H](CC(N)=O)NC(=O)[C@@H](CC(=O)O)NC(=O)[C@H](Cc3c[nH]cn3)NC(=O)[C@@H](Cc3ccccc3)NC(=O)[C@H]([C@@H](C)CC)NC(=O)[C@@H](CCCN)NC2=O)[C@@H](C)CC)CS1  MIC (broth microdilution; ATCC 29213, LB medium; 18 h, 37 °C, with: ZnSO4 0.3 mM): 2 µg/mL
O=[N+]([O-])[O-].S=c1[nH]cnc2[nH]cnc12.[Ag+].c1ccc(P(c2ccccc2)c2ccccc2)cc1.c1ccc(P(c2ccccc2)c2ccccc2)cc1  MIC (agar dilution; methicillin-resistant; 24 h, 37 °C): 1250 µg/mL
CC[C@H](C)[C@H](NC(=O)[C@H](CC(C)C)NC(=O)[C@H](CC(=O)O)NC(=O)[C@H](CO)NC(=O)[C@H](CCCNC(=N)N)NC(=O)[C@@H](N)CO)C(=O)N[C@H](C(=O)N[C@@H](Cc1c[nH]cn1)C(=O)N[C@@H](CCC(N)=O)C(=O)N[C@@H](CCCNC(=N)N)C(=O)N[C@@H](CC(C)C)C(=O)N[C@@H](Cc1ccccc1)C(N)=O)C(C)C  MIC (broth microdilution; Mueller Hinton broth): > 400 µg/mL
CC(C)C[C@@H]1NC(=O)[C@@H](CC(C)C)NC(=O)[C@H](CCN)NC(=O)[C@@H](NC(=O)Cn2cc(C[C@H](NC(=O)CC[C@@H]3NC(=O)[C@H](CCN)NC(=O)[C@H](Cc4ccc(O)cc4)NC(=O)[C@H]([C@@H](C)O)NC(=O)[C@H](C(C)C)NC(=O)[C@@H]4CCCN4C(=O)[C@@H](C)NC(=O)[C@H](CO)NC(=O)[C@H](C)NC(=O)[C@H](C(C)(C)C)NC(=O)[C@H](CCO)NC(=O)[C@H](Cc4c[nH]c5ccccc45)NC(=O)[C@H](CCO)NC(=O)[C@@H](CCN)NC3=O)C(N)=O)nn2)CCNC(=O)[C@H]([C@@H](C)O)NC(=O)[C@H](CCN)NC(=O)[C@H](CCN)NC1=O  MIC (broth microdilution; MRSA USA300, CAMHB with polysorbate-80; 16 h): > 64 µg/mL
CC(C)c1ccc2c(c1)CCC1C(C)(CN(CC(O)C[N+](C)(C)C)CC(O)C[N+](C)(C)C)CCCC21C (centres unmarked)  MIC (microbial growth; ATCCBAA44 MRSA; drug-resistant strain): 312 µg/mL
CCCCCCCCCCCCCCCC(=O)N[C@@H](CCCCN)C(=O)N1CCC[C@H]1C(=O)N[C@H](C(N)=O)C(C)C  MIC (broth microdilution; MSSA ATCC 29213; Mueller-Hinton broth): 11.4 µM
CCCCCCCCCCCCCCN1C(=O)/C(=N\NC(=N)N)c2cc(C)ccc21  MIC (broth microdilution; BAA41 MRSA; 18 h, 37 °C): > 192 µg/mL
S=C(NCc1ccccn1)NCc1ccccn1  MIC (microbial growth, well diffusion): 14.8 µg/mL
COc1cc(/C=N/N2C(=O)c3ccccc3NC2c2cc(OC)c(O)c([N+](=O)[O-])c2)cc([N+](=O)[O-])c1O (centres unmarked)  MIC (microbial growth, broth dilution; 24 h, drug-resistant strain, clinical isolate): > 256 µg/mL
CC[C@H](C)[C@H](NC(=O)[C@@H](Cc1ccccc1)NC)C(=O)N[C@@H](CO)C(=O)N[C@H](CCC(N)=O)C(=O)N[C@@H](C(=O)N[C@H](C(=O)OC[C@H](N)C(=O)N[C@H]1C(=O)N[C@@H](C)C(=O)N[C@@H](C2CCCCC2)C(=O)N[C@@H]([C@@H](C)CC)C(=O)O[C@H]1C)[C@@H](C)CC)[C@@H](C)CC  MIC (broth microdilution; ATCC 29213, MSSA, Mueller-Hinton broth; 16 h, 37 °C): 0.5 µg/mL
CC(C)CCCCCCCCC/C=C/C(=O)N[C@@H](CC(=O)O)C(=O)N[C@H]1CNC(=O)[C@@H]2CCCN2C(=O)CNC(=O)[C@@H]([C@@H](C)O)NC(=O)CNC(=O)[C@H](CC(=O)O)NC(=O)CNC(=O)[C@H](CC(=O)O)NC(=O)CNC(=O)[C@H]2CCCCN2C1=O  MIC (MRSA USA300; with: Ca2+ 1 mM): > 64 µg/mL
CN[C@@H]1[C@H](O)[C@H](NC)[C@H]2O[C@]3(O)[C@H](O[C@@H]2[C@H]1O)O[C@H](C)C[C@]3(O)CNCc1ccc(F)cc1  MIC (MRSA NRS70): > 200 µg/mL
O=C(O)c1ccc(-n2cc(/C=N/Nc3cccc(Cl)c3F)c(-c3ccc4ccccc4c3)n2)cc1  MIC (microbial growth; ATCC33592; drug-resistant strain): 0.78 µg/mL
C[C@H](N)[C@@H](CCCCCCCCCCCCCCC(=O)CCCCCCC[C@@H](O)[C@@H](C)N)O[C@@H]1O[C@H](CO)[C@H](O)[C@H](O)[C@H]1O  MIC (microbial growth, resazurin; ATCC12600; 6 h): 3.88 µM
CC(C)C[C@@H]1NC(=O)[C@H](C)NC(=O)[C@H](NC(=O)[C@H](CO)NC(=O)[C@@H](CCCCN)NC(=O)[C@@H](CC(C)C)NC(=O)[C@@H](N)Cc2ccccc2)[C@H](C)OC(=O)[C@H](CC(C)C)NC1=O  MIC (MSSA ATCC 29213; TFA salt): 8 µg/mL
CC(C)=CCc1c(O)ccc2c1O[C@H]1c3cc4c(cc3OC[C@@H]21)OC(C)(C)C=C4  MIC: inactive
CC(C)[C@H](NC(=O)[C@@H](NC(=O)[C@H](CCCCN)NC(=O)CNC(=O)[C@@H](NC(=O)[C@@H](NC(=O)[C@H](CO)NC(=O)[C@@H](NC(=O)[C@@H](NC(=O)[C@@H]1CCCN1C(=O)[C@@H](NC(=O)[C@@H](NC(=O)CN)C(C)C)C(C)C)C(C)C)C(C)C)C(C)C)C(C)C)C(C)C)C(N)=O  MIC (broth microdilution; USA300 MRSA): > 100 µM
CC[C@H](C)[C@H](NC(=O)[C@H](CCCCN)NC(=O)[C@H](CC(N)=O)NC(=O)[C@H](Cc1c[nH]c2ccccc12)NC(=O)[C@H](Cc1ccccc1)NC(=O)[C@H](CCCCN)NC(=O)[C@H](CCCCNC(=N)N)NC(=O)[C@H](CC(C)C)NC(=O)[C@H](Cc1c[nH]c2ccccc12)NC(=O)[C@H](CCCCN)NC(=O)[C@H](CCCCNC(=N)N)NC(=O)[C@H](CC(C)C)NC(=O)CNC(C)=O)C(=O)N[C@@H](CCCCN)C(=O)N[C@@H](CCCCNC(=N)N)C(N)=O  MIC (broth microdilution; multidrug-resistant): 3.12 µM
NCCCC[C@@H]1NC(=O)[C@@H](Cc2c[nH]c3ccccc23)NC(=O)[C@H](Cc2c[nH]c3ccccc23)NC(=O)[C@@H](N)CSCc2ccc(cc2)CSC[C@@H](C(N)=O)NC(=O)[C@@H](Cc2c[nH]c3ccccc23)NC(=O)[C@H](Cc2c[nH]c3ccccc23)NC(=O)[C@@H](Cc2c[nH]c3ccccc23)NC(=O)[C@H](CCCCN)NC(=O)[C@@H](CCCCN)NC(=O)[C@H](CCCCN)NC(=O)[C@@H](CCCCN)NC1=O  MIC (Newman MSSA): 32 µg/mL
CC[S+]([O-])C1C(CO)OC(OC2C(N)CC(N)C(O)C2OC2OC(CO)C(OC3OC(CN)C(O)C(O)C3N)C2O)C(N)C1O (mixture of isomers)  MIC (methicillin-resistant): 64 to 128 µg/mL
CC[C@H](C)[C@H](NC(=O)[C@@H]1CC(=O)N[C@@H](CO)C(=O)N[C@@H](CC(C)C)C(=O)NCC(=O)N[C@@H](CO)C(=O)N[C@@H](CO)C(=O)N2CCC[C@H]2C(=O)N[C@@H](Cc2ccc(O)cc2)C(=O)N[C@@H](CC(N)=O)C(=O)N1)C(=O)N[C@@H](CC(C)C)C(=O)NCC(=O)N[C@@H](Cc1ccc(O)cc1)C(=O)N1CCC[C@H]1C(=O)N[C@@H](C)C(=O)N[C@@H](CC(C)C)C(=O)N[C@H](C(=O)N[C@H](C(=O)N[C@H](C(=O)N[C@@H](Cc1ccc(O)cc1)C(=O)N1CCC[C@H]1C(=O)O)[C@@H](C)CC)C(C)C)[C@@H](C)CC  MIC: 128 µg/mL
N=C(N)NCCC[C@H](NC(=O)[C@H](Cc1c[nH]c2ccccc12)NC(=O)[C@H](CCC(N)=O)NC(=O)[C@H](Cc1c[nH]c2ccccc12)NC(=O)[C@H](CCCNC(=N)N)NC(=O)[C@H](Cc1c[nH]c2ccccc12)NC(=O)[C@H](CCC(N)=O)NC(=O)[C@H](Cc1c[nH]c2ccccc12)NC(=O)[C@H](CCCNC(=N)N)NC(=O)CCCCCNC(=O)/C=C/c1ccc(O)c(O)c1)C(N)=O  MIC (broth microdilution; ATCC 25923; 24 h, 37 °C): 28 µM
CCCO[C@H]1[C@H](O)[C@@H](N)[C@@H](O[C@H]2[C@H](O[C@@H]3O[C@H](CO)[C@@H](O[C@H]4O[C@@H](CN)[C@@H](O)[C@H](O)[C@H]4N)[C@H]3O)[C@@H](O)[C@H](N)C[C@@H]2N)O[C@@H]1CO  MIC (broth microdilution; MRSA isolate AG 039): 16 µg/mL

Excerpt of the above:
NCCCC[C@@H]1NC(=O)[C@@H](Cc2c[nH]c3ccccc23)NC(=O)[C@H](Cc2c[nH]c3ccccc23)NC(=O)[C@@H](N)CSCc2ccc(cc2)CSC[C@@H](C(N)=O)NC(=O)[C@@H](Cc2c[nH]c3ccccc23)NC(=O)[C@H](Cc2c[nH]c3ccccc23)NC(=O)[C@@H](Cc2c[nH]c3ccccc23)NC(=O)[C@H](CCCCN)NC(=O)[C@@H](CCCCN)NC(=O)[C@H](CCCCN)NC(=O)[C@@H](CCCCN)NC1=O  MIC (Newman MSSA): 32 µg/mL
CC[S+]([O-])C1C(CO)OC(OC2C(N)CC(N)C(O)C2OC2OC(CO)C(OC3OC(CN)C(O)C(O)C3N)C2O)C(N)C1O (mixture of isomers)  MIC (methicillin-resistant): 64 to 128 µg/mL
CC[C@H](C)[C@H](NC(=O)[C@@H]1CC(=O)N[C@@H](CO)C(=O)N[C@@H](CC(C)C)C(=O)NCC(=O)N[C@@H](CO)C(=O)N[C@@H](CO)C(=O)N2CCC[C@H]2C(=O)N[C@@H](Cc2ccc(O)cc2)C(=O)N[C@@H](CC(N)=O)C(=O)N1)C(=O)N[C@@H](CC(C)C)C(=O)NCC(=O)N[C@@H](Cc1ccc(O)cc1)C(=O)N1CCC[C@H]1C(=O)N[C@@H](C)C(=O)N[C@@H](CC(C)C)C(=O)N[C@H](C(=O)N[C@H](C(=O)N[C@H](C(=O)N[C@@H](Cc1ccc(O)cc1)C(=O)N1CCC[C@H]1C(=O)O)[C@@H](C)CC)C(C)C)[C@@H](C)CC  MIC: 128 µg/mL
N=C(N)NCCC[C@H](NC(=O)[C@H](Cc1c[nH]c2ccccc12)NC(=O)[C@H](CCC(N)=O)NC(=O)[C@H](Cc1c[nH]c2ccccc12)NC(=O)[C@H](CCCNC(=N)N)NC(=O)[C@H](Cc1c[nH]c2ccccc12)NC(=O)[C@H](CCC(N)=O)NC(=O)[C@H](Cc1c[nH]c2ccccc12)NC(=O)[C@H](CCCNC(=N)N)NC(=O)CCCCCNC(=O)/C=C/c1ccc(O)c(O)c1)C(N)=O  MIC (broth microdilution; ATCC 25923; 24 h, 37 °C): 28 µM
